Measurements gathered from unrelated publications.
Each numbered part is a random draw from the data of one study; scales do not carry over between parts.

Series 1
Target: Interferon regulatory factor 7, full length, phosphomimetic (IRF7, Homo sapiens, UniProt Q92985, residues 1-503, S101K/S471D/S472D/S475D/S476D/S477D/S483D/S484D/S487D)
Chain of UniProt Q92985 (whole entry, unmodified, looked up): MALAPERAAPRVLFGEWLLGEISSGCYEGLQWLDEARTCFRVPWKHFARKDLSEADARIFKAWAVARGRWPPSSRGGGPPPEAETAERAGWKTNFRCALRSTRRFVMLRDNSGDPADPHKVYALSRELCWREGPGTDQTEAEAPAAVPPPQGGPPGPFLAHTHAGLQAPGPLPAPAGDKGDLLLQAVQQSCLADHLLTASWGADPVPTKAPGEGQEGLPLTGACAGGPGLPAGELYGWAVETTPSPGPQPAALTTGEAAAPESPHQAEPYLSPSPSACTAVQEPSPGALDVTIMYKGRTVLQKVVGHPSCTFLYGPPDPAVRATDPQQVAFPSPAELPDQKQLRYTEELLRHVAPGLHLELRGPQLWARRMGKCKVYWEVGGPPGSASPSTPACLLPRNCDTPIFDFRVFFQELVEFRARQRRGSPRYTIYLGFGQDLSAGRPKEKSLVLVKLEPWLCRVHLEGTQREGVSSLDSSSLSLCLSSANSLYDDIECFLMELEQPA
Method: protein-binding microarray
Form: double-stranded DNA, one strand shown
Medium: in vitro
Tested at: 250 nM
Notes: 60-bp whole probe
With: salmon DNA 0.4 mg/ml
Baseline: random background probes
Direction: higher = stronger binding
Endpoint: log fluorescence
Constant ends, left off below: GCCTAGCAC … GTCTTGATTCGCTTGACGCTGCTG
Oligonucleotide = TTAGAACTGTGTTTCGATTAGTGCTAG; result = 3.51 z-score
Oligonucleotide = TTAGGACTGGACTTTCGGTGAGTGCTA; result = -0.543 z-score
Oligonucleotide = AAAAATTAGTGTTTCCCCTAGTGCTAG; result = 0.549 z-score
Oligonucleotide = GACGATATCGGGTAGCGAGACGTGCTA; result = -0.537 z-score
Oligonucleotide = TTAGGACTGGTTATCGGTTAGTGCTAG; result = 0.625 z-score
Oligonucleotide = GCAGTTGTCGTTCAAGGCTGGTGCTAG; result = -0.331 z-score
Oligonucleotide = GACGGTTTCGACTATCGGGAGGTGCTA; result = 5.79 z-score
Oligonucleotide = TTAGGTATCGAAACTGGGTTAGTGCTA; result = 1.68 z-score

Series 2
Target: Histone acetyltransferase KAT6A, winged helix 1, GST fusion (KAT6A, Homo sapiens, UniProt Q92794, residues 1-85)
Method: protein binding microarray
Form: double-stranded DNA, one strand shown
Medium: in vitro
Tested at: not given
Notes: 8-mer, flanks averaged, mean of 2 arrays, mostly near background
Baseline: not given
Direction: higher = stronger binding
Endpoint: E-score
Residues (chain): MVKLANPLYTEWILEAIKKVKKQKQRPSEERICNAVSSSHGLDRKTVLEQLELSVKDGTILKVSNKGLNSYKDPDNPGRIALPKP
Oligonucleotide = AGGACTAA; result = -0.0471
Oligonucleotide = CTACAACA; result = -0.137
Oligonucleotide = GAGTTGTA; result = -0.0916
Oligonucleotide = TCATATCA; result = -0.128
Oligonucleotide = ACGAATCA; result = -0.147
Oligonucleotide = CCACTAAA; result = -0.178
Oligonucleotide = GAATTCGC; result = 0.113
Oligonucleotide = GGCATACA; result = -0.0408
Oligonucleotide = CACCCCCA; result = -0.21
Oligonucleotide = ACTTTAAT; result = -0.129

Series 3
Target: Ras GTPase-activating protein-binding protein 1, full length (G3BP1, Homo sapiens, UniProt Q13283)
Chain of UniProt Q13283 (whole entry, looked up): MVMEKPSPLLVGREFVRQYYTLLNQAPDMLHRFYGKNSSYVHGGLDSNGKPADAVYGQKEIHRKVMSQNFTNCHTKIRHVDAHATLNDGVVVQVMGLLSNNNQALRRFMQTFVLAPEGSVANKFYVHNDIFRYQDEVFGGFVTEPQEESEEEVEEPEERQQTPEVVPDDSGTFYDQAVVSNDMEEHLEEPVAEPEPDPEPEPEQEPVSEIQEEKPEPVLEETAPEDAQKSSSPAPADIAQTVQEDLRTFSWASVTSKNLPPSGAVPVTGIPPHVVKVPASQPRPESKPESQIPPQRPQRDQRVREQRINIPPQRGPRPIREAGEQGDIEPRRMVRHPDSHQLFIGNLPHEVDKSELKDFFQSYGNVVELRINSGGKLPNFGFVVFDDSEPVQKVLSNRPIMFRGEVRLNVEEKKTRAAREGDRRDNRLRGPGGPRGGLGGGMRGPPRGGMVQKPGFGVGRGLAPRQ
Method: RNA Bind-n-Seq
Form: RNA
Medium: in vitro
Tested at: 200 nM
Notes: whole 134-nt RNA, ends assumed
With: 150 mM LiCl
Baseline: input library
Direction: higher = stronger binding
Endpoint: log2 enrichment
All molecules: 7-deaza-guanosine replaces G
Oligonucleotide = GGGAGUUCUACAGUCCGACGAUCUCCUGUGCUACACAUCGUAUGUACCGAAUCGGGUUUUUUGGGGUUUUUUGGGUUUUUUGGAAAGUAUUAUGUUACGCCGUUCGGAUCUGCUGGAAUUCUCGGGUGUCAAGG; result = 0.945
Oligonucleotide = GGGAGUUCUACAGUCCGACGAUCCACAGACAACACGCACCCACACAGACACAGAGGGAAGGGGUUGGGAUGGGGACAGGGUGCACAGCAGGGCGGGGUAGGACCCCAGAAACUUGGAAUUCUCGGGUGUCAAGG; result = -1.39
Oligonucleotide = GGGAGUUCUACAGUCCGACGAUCCUGUGCUACACAUCGUAUGUACCGAAUCGGGGUUUUUUUGGGUUUUUUUGGUUUUUUUGGGGAAAGUAUUAUGUUACGCCGUUCGGAUCUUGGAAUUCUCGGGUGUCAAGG; result = 1.42
Oligonucleotide = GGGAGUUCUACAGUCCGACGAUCAGUCCUGUGCUACACAUCGUAUGUACCGAAUCGGGGUUUUUGGGGAGGGGUUUGGGGAAAGUAUUAUGUUACGCCGUUCGGAUCUGCACUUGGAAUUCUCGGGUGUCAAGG; result = -0.179
Oligonucleotide = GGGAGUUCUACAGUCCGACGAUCGUCCUGUGCUACACAUCGUAUGUACCGAAUCAAAUUUUUAAACCCCCAAAUUUUUAAAAAAGUAUUAUGUUACGCCGUUCGGAUCUGCACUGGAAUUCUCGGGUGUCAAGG; result = -0.0283
Oligonucleotide = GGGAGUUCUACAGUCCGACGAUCUAACUUUAGAGGAGGAUCUGAUGGAUAUGGCAGUGGACGUGGAUUUGGGGAUGGCUAUAAUGGGUAUGGAGGAGGACCUGGAUGUGGCAAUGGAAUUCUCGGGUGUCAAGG; result = -0.268
Oligonucleotide = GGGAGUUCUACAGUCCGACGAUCCUCAAGUCCUGUGCUACACAUCGUAUGUACCGAAUCGGGAAGGGAAGGGAAGGGAAAGUAUUAUGUUACGCCGUUCGGAUCUGCACUUCCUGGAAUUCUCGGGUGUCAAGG; result = 0.105
Oligonucleotide = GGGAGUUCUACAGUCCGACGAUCUCCUGUGCUACACAUCGUAUGUACCGAAUCAAACCCCCCCAAACCCAAACCCCCCCAAAAAAGUAUUAUGUUACGCCGUUCGGAUCUGCAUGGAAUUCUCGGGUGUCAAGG; result = -0.536

Further values, each from its own experiment
Substance = PhoQ, residues 284 288 289 292 302 303 GLASVI; target = PhoP, residues 12 14 15 18 19 NQCAL (Escherichia coli, UniProt P23836); assay = Sort-seq, measured: YFP reporter; test system = E. coli; setting = PhoQ-PhoP variant library, with: 10 µM Mg2+; how to read = baseline: high Mg2+ state, higher = stronger signaling; endpoint = fold induction; result = 12.7

For quick reference, copied from above (series 3):
Oligonucleotide = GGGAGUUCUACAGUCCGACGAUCUAACUUUAGAGGAGGAUCUGAUGGAUAUGGCAGUGGACGUGGAUUUGGGGAUGGCUAUAAUGGGUAUGGAGGAGGACCUGGAUGUGGCAAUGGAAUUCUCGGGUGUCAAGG; result = -0.268
Oligonucleotide = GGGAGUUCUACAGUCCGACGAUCCUCAAGUCCUGUGCUACACAUCGUAUGUACCGAAUCGGGAAGGGAAGGGAAGGGAAAGUAUUAUGUUACGCCGUUCGGAUCUGCACUUCCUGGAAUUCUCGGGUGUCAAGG; result = 0.105
Oligonucleotide = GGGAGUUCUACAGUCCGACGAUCUCCUGUGCUACACAUCGUAUGUACCGAAUCAAACCCCCCCAAACCCAAACCCCCCCAAAAAAGUAUUAUGUUACGCCGUUCGGAUCUGCAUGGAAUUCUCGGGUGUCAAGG; result = -0.536
